Measured values from different studies.
Every numbered part comes from another study and shows a few of its results, in no order.
UniProt Q86SM5, sequence (whole entry, looked up): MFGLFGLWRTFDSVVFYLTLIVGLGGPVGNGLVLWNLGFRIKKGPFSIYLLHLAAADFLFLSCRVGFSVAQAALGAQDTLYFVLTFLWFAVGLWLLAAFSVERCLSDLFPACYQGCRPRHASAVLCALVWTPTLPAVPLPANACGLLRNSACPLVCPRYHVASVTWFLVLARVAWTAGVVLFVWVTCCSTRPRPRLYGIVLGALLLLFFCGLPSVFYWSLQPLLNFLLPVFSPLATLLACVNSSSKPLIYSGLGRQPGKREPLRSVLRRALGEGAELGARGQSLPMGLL
UniProt O43613, sequence (whole entry, looked up): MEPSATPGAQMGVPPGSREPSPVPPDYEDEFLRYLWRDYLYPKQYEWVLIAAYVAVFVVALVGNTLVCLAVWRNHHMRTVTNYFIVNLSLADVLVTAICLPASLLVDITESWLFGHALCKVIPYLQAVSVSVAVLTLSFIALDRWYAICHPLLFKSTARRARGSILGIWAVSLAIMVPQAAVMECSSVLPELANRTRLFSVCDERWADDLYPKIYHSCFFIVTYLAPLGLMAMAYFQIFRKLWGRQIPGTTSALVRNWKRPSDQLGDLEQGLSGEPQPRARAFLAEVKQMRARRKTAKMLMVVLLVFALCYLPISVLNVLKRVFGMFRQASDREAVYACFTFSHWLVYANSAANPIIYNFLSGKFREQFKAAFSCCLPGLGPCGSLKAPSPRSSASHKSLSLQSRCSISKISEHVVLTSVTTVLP
UniProt P30939, sequence (whole entry, looked up): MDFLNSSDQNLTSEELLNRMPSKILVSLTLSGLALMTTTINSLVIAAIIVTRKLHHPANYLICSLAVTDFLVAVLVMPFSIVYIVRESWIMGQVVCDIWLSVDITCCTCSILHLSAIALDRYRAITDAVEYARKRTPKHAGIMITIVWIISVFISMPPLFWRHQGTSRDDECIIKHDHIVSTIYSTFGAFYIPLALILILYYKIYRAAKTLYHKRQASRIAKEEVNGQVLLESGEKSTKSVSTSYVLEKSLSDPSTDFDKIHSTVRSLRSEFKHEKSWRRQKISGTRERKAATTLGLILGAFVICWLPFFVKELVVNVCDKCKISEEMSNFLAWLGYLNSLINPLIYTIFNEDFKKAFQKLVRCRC
UniProt Q9H2K8, sequence (whole entry, looked up): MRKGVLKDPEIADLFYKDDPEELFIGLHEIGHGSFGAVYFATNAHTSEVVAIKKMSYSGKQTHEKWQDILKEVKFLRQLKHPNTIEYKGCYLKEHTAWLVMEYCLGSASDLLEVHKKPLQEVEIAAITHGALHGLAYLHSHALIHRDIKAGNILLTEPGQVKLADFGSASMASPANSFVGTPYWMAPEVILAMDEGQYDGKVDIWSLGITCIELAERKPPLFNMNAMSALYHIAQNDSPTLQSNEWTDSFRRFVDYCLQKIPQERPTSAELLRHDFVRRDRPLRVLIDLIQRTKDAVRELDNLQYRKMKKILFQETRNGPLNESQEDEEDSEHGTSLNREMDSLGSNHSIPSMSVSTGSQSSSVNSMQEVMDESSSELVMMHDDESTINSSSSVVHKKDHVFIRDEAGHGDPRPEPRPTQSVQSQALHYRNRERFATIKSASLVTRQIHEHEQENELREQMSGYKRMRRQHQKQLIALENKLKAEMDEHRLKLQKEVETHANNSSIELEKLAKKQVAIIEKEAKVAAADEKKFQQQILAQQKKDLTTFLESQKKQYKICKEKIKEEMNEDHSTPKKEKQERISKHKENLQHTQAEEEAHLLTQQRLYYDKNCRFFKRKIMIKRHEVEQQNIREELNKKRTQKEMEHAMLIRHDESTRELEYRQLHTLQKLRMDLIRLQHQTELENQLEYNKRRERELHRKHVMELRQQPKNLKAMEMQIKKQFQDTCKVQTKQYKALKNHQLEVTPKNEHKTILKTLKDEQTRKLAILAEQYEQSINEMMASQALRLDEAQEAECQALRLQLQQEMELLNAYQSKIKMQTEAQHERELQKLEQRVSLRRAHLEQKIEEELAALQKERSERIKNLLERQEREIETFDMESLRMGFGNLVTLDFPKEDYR
UniProt P45985, sequence (whole entry, looked up): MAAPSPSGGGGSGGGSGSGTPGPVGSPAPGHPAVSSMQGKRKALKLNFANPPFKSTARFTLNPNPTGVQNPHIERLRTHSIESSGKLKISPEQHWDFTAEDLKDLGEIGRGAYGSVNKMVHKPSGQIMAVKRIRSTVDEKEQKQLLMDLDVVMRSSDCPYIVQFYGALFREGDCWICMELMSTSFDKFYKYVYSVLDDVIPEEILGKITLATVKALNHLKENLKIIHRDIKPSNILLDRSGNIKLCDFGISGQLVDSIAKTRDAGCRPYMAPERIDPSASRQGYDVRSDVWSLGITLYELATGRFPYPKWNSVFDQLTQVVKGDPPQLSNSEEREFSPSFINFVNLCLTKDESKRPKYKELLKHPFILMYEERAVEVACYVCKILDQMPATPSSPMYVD
UniProt P48960, sequence (whole entry, looked up): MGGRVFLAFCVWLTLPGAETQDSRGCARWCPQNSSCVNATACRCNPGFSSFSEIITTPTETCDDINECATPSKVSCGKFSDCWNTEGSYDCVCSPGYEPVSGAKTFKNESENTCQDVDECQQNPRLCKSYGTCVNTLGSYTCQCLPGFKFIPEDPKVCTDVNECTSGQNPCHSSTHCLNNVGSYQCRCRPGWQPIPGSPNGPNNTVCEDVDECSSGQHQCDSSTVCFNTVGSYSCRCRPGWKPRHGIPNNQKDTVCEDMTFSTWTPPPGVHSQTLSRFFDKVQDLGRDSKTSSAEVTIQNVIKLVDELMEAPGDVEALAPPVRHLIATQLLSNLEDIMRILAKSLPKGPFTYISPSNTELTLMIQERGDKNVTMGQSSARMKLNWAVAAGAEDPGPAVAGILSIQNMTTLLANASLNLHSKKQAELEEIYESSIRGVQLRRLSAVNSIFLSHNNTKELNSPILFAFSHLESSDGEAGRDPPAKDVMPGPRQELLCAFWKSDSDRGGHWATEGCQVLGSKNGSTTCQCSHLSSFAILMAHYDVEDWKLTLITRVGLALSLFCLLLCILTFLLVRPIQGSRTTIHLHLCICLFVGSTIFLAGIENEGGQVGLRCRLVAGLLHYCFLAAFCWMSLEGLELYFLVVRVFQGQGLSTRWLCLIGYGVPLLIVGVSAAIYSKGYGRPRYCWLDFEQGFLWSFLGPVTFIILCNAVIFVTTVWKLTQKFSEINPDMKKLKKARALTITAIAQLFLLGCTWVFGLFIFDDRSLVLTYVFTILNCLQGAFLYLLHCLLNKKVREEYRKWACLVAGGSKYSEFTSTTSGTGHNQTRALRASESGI
UniProt Q86Y34, sequence (whole entry, looked up): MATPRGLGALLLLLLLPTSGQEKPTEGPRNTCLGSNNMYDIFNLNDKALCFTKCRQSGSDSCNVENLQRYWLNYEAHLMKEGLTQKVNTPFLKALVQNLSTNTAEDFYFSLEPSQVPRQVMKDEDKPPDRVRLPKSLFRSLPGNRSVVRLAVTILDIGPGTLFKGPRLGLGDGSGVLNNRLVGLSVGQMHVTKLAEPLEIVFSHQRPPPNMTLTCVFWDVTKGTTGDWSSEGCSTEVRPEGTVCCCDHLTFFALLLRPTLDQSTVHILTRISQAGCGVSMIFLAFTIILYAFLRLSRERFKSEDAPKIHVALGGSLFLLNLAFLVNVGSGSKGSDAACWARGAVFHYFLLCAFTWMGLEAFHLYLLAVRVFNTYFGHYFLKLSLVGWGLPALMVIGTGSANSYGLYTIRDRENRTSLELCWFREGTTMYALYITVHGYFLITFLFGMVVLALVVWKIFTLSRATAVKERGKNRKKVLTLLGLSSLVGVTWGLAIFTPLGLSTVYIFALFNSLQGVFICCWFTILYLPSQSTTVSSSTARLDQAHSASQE
UniProt P29317, sequence (whole entry, looked up): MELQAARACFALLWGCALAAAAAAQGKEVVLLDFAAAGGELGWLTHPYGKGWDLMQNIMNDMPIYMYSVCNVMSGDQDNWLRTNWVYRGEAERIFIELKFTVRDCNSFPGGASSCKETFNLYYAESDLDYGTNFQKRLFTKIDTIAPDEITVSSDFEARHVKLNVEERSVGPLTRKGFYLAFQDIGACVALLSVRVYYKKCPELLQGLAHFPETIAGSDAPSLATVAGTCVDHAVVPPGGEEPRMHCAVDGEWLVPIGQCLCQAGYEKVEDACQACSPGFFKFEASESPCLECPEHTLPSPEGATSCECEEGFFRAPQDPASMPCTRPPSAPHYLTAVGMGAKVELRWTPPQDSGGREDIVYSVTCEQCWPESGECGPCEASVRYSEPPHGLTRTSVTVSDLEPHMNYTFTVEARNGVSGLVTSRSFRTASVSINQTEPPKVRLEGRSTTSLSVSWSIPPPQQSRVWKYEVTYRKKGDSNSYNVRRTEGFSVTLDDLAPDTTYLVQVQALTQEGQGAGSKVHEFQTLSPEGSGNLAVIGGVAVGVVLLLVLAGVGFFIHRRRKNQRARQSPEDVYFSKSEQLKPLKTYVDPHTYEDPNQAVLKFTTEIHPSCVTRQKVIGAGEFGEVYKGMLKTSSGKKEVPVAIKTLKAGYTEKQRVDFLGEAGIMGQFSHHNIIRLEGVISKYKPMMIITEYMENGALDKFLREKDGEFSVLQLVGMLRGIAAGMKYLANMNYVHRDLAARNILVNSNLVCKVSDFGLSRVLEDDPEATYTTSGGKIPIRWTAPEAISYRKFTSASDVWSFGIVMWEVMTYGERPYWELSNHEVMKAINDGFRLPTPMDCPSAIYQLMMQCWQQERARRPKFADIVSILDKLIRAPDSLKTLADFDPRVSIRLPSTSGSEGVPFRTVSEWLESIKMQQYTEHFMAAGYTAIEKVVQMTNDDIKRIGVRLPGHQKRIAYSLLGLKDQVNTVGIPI

Set 1 — observed: cell-free assay; technique: competition with immobilised ligand; tested at: 1 µM
SMILES: O=C(Nc1cccnn1)N1CC(C/C=C/c2cncc(Oc3ccc(C(F)(F)F)cn3)n2)C1
| target | remaining binding [%] |
| --- | --- |
| TAOK3 (Homo sapiens, UniProt Q9H2K8) | 82 |
| MAP2K4 (Homo sapiens, UniProt P45985) | 74 |
| SBK1 (Homo sapiens, UniProt Q52WX2) | 89 |

Set 2 — observed: enzyme activity; mode: inhibitor; tested at: 0.5 µM; baseline: control
Target: Mitogen-activated protein kinase kinase kinase 7 (MAP3K7, Homo sapiens, UniProt O43318)
Residues (O43318 1-606): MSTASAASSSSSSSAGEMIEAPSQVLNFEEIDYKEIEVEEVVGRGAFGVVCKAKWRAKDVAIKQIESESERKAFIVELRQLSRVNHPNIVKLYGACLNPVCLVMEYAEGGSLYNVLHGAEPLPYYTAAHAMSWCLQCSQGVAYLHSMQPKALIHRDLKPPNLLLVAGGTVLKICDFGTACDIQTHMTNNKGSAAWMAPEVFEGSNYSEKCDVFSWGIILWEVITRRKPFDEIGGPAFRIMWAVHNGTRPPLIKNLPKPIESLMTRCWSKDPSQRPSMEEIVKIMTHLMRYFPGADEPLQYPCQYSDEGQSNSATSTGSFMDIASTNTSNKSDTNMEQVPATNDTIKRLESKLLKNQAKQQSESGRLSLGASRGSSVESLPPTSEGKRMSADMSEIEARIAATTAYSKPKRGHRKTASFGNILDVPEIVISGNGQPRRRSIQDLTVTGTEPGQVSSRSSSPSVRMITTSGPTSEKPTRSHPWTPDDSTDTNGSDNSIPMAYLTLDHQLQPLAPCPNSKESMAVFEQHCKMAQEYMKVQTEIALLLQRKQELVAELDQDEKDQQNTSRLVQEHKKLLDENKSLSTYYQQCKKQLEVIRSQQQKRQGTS
| SMILES | remaining activity [%] |
| --- | --- |
| Cc1ccc(Nc2nccc(N(C)c3ccc4c(C)n(C)nc4c3)n2)cc1S(N)(=O)=O | 90.6 |
| NCCNc1ncc(C(N)=O)c(Nc2cccc(C(F)(F)F)c2)n1 | 71.2 |
| Cc1nc(-c2ccccc2)c(-c2ccncc2)o1 | 93.6 |
| Nc1[nH]nc2nc3ccccc3nc12 | 100 |
| CO[C@H]1C[C@@H]2CC[C@@H](C)[C@@](O)(O2)C(=O)C(=O)N2CCCC[C@H]2C(=O)O[C@H]([C@H](C)C[C@@H]2CC[C@@H](O)[C@H](OC)C2)CC(=O)[C@H](C)/C=C(\C)[C@@H](O)[C@@H](OC)C(=O)[C@H](C)C[C@H](C)/C=C/C=C/C=C/1C | 95.2 |
| Cc1cccc(-c2[nH]c(C(C)(C)C)nc2-c2ccc3c(c2)OCO3)n1 | 96.3 |
| O=S(=O)(c1cccc2cnccc12)N1CCCNCC1 | 106 |
| O=C(CCCc1ccc(-c2ccccc2F)cc1)Nc1ccc(O)cc1 | 105 |
| COc1ccc(OC)c2c(=S)c3ccccc3[nH]c12 | 98.8 |
| COc1cc2ncnc(Nc3ccc(Oc4ccccc4)cc3)c2cc1OC | 102 |
| Oc1ccc(-c2nc(-c3ccncc3)c(-c3ccc(F)cc3)[nH]2)cc1 | 97.7 |
| COc1ccc(CNC(=O)Nc2ncc([N+](=O)[O-])s2)cc1 | 99.3 |
| O=C1NC(=O)C(c2cn(CCCO)c3ncccc23)=C1c1cnccn1 | 95.5 |
| C#Cc1cccc(Nc2ncnc3cc(OCCOC)c(OCCOC)cc23)c1 | 88.8 |
| O=C1NC(=O)C(c2cn(CCCn3ccnc3)c3ccccc23)=C1Nc1ccccc1 | 93.8 |

Set 3 — observed: kinase activity; mode: inhibitor; tested at: 1 µM
SMILES: CC(C)S(=O)(=O)c1ccc2nccc(Nc3ccc4sc(C5CCCC5)nc4c3)c2c1.Cl
| target | remaining activity [%] |
| --- | --- |
| MAPK13 (Homo sapiens, UniProt O15264) | 98 |
| EPHA2 (Homo sapiens, UniProt P29317) | 95 |
| MET (Homo sapiens, UniProt P08581) | 117 |

Set 4 — cell line: HaCaT; tested at: 100 µM; time: 36 h
| Structure (SMILES) | viability |
| --- | --- |
| CCOC(CN1CCN(CC(C)C(=O)c2ccccc2)CC1)c1ccccc1 (centres unmarked) | 85.7% |
| CC(=O)[C@@]1(O)CC[C@H]2[C@@H]3C[C@H](C)C4=CC(=O)C=C[C@]4(C)[C@@]3(F)[C@@H](O)C[C@@]21C | 87.2% |
| NC(=O)c1ncn([C@@H]2O[C@H](CO)[C@@H](O)[C@H]2O)c1O | 92.7% |

Set 5 — observed: β-arrestin recruitment; mode: agonist; technique: PRESTO-Tango; tested at: 10 µM; baseline: untreated
Compound: N=C(N)NC(=O)c1cnn(-c2cccc3ncccc23)c1C1CC1
| target | fold over basal |
| --- | --- |
| HCRTR1 (Homo sapiens, UniProt O43613) | 0.8 fold |
| HTR1F (Homo sapiens, UniProt P30939) | 0.75 |
| ADGRG3 (Homo sapiens, UniProt Q86Y34) | 1.42 |
| Adhesion G protein-coupled receptor E5 (Homo sapiens, UniProt P48960) | 0.88 |
| Mas-related G-protein coupled receptor member G (MRGPRG, Homo sapiens, UniProt Q86SM5) | 1.43 |

Set 6 — mode: inhibitor; tested at: 10 µM; baseline: control
Target: Diamine acetyltransferase 1 (Homo sapiens, UniProt P21673)
Residues (P21673 1-171): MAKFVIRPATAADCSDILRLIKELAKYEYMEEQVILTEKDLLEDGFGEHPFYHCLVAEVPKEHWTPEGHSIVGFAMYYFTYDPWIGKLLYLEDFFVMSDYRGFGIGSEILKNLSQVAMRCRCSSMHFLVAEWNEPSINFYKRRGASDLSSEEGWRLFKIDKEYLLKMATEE
| Compound | remaining activity |
| --- | --- |
| COc1ccc(C[C@@H]2c3cc(Oc4cc(C[C@@H]5c6cc(OC)c(OC)cc6CCN5C)ccc4O)c(OC)cc3CCN2C)cc1 | 99.9% |
| Cn1c(=O)c2c(c3ccccc31)OC(C)(C)C=C2 | 101% |
| CC1(O)CCOC(=O)C1 (racemic) | 90.7% |

Some of these lines once more (set 2):
| SMILES | remaining activity [%] |
| --- | --- |
| Oc1ccc(-c2nc(-c3ccncc3)c(-c3ccc(F)cc3)[nH]2)cc1 | 97.7 |
| COc1ccc(CNC(=O)Nc2ncc([N+](=O)[O-])s2)cc1 | 99.3 |
